Results from different studies.
A part holds a random share of what one study measured.
UniProt O95835, sequence (whole entry, looked up): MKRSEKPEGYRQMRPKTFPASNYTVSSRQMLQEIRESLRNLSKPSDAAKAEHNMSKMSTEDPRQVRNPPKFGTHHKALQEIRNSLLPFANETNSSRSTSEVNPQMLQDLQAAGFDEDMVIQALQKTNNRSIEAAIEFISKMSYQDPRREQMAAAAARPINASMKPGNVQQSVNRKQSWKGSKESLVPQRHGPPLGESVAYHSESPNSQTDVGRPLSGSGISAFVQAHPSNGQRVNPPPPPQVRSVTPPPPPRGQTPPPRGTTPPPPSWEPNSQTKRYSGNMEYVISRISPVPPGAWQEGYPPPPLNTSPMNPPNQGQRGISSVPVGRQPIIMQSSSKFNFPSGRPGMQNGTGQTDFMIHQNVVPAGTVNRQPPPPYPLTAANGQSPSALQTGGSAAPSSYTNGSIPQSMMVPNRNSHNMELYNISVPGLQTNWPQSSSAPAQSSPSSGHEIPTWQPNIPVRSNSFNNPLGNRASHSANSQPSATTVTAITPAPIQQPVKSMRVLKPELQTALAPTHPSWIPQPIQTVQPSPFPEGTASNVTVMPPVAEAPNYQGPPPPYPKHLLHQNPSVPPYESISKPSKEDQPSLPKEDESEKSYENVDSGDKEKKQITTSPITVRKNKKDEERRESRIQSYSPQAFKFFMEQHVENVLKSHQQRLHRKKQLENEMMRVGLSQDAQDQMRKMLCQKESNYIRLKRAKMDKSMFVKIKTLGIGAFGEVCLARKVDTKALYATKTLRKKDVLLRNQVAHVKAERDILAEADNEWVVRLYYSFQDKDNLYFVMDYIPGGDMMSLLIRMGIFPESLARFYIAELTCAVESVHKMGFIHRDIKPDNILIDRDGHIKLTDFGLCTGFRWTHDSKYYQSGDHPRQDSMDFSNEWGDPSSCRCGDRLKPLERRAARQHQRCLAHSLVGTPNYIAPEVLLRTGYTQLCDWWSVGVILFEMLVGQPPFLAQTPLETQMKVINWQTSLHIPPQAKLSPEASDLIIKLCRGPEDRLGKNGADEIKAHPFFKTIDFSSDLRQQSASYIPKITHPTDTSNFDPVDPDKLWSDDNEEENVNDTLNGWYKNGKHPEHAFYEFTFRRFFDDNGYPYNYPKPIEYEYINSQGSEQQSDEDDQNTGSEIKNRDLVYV
UniProt Q07002, sequence (whole entry, looked up): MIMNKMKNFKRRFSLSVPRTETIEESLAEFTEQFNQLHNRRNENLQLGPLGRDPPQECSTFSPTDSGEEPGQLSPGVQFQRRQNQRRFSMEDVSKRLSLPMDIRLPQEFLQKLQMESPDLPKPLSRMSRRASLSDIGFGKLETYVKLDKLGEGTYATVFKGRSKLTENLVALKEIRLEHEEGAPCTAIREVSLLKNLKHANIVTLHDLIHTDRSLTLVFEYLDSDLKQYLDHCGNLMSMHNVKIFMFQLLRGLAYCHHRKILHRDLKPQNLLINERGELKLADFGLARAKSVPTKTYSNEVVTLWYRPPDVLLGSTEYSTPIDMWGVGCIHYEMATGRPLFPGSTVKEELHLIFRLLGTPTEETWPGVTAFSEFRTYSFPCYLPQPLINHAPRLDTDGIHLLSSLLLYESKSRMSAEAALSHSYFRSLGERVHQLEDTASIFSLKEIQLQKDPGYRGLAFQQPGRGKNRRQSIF
UniProt P10721, sequence (whole entry, unmodified, looked up): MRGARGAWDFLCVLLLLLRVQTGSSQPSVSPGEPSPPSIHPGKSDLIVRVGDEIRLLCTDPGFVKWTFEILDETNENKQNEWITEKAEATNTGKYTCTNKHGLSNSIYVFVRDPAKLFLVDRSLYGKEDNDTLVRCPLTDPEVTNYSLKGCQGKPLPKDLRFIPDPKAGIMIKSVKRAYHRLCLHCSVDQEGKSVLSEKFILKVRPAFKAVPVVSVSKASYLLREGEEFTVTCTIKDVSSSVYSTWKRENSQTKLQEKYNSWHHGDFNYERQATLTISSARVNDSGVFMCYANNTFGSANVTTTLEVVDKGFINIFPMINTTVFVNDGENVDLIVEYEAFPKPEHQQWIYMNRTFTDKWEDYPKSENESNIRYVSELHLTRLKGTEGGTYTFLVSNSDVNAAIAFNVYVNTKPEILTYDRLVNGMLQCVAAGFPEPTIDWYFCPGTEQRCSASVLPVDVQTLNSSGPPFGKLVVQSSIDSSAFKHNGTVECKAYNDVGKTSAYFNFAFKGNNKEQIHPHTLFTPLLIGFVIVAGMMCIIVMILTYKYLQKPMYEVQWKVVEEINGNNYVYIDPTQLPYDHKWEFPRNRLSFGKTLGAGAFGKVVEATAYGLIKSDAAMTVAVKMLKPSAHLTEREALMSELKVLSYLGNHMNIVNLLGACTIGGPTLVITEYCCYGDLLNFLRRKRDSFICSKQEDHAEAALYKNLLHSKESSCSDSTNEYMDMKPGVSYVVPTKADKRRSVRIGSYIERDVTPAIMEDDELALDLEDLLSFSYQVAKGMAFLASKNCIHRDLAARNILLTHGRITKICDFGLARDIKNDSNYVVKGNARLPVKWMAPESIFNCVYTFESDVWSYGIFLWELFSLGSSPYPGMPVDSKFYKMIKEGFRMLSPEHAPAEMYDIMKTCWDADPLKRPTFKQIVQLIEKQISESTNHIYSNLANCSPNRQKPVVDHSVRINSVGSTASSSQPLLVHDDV
UniProt Q99640, sequence (whole entry, looked up): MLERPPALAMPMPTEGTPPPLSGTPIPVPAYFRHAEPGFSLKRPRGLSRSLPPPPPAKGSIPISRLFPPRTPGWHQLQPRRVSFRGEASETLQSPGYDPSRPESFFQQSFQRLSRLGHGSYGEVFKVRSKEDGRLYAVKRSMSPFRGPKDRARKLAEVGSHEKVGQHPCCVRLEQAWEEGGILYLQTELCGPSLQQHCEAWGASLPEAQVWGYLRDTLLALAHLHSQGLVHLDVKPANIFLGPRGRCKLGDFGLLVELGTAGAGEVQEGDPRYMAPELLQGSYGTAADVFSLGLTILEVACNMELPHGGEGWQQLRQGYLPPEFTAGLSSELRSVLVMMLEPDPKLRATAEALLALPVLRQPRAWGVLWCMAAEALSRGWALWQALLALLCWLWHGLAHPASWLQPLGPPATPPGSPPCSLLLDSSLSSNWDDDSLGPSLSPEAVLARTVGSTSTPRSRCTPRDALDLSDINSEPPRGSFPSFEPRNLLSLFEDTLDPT
UniProt O94768, sequence (whole entry, looked up): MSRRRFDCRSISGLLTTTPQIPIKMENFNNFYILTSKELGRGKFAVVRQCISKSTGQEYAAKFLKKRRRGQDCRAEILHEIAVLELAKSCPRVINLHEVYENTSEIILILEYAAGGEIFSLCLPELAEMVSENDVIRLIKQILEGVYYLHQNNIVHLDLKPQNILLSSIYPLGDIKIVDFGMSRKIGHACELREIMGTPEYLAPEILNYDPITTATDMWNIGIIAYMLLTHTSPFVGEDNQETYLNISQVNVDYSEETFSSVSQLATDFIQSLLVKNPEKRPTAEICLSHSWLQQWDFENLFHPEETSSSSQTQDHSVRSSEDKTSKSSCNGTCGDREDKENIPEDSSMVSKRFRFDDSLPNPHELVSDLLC
UniProt Q16620, sequence (whole entry, looked up): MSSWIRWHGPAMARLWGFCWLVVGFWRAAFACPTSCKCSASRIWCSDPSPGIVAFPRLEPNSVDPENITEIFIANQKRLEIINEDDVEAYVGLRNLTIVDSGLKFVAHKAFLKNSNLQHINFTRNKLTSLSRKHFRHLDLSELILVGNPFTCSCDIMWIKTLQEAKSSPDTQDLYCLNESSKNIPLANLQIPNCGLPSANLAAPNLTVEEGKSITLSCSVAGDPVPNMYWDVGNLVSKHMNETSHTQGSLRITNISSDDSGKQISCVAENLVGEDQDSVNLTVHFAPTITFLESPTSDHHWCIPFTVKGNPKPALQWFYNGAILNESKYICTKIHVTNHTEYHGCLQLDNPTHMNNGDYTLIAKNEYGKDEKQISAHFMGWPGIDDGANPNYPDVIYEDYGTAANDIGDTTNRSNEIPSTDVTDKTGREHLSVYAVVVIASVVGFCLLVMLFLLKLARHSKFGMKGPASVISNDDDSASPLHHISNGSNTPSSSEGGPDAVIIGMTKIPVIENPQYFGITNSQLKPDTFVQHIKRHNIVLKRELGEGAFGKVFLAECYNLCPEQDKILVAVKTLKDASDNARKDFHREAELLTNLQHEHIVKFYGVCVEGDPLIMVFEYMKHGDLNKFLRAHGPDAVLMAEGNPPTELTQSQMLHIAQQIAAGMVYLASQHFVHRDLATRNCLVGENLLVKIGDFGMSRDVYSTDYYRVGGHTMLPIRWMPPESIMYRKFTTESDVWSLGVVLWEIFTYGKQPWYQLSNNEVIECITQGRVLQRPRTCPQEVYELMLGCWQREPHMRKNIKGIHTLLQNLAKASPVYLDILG
UniProt O75582, sequence (whole entry, looked up): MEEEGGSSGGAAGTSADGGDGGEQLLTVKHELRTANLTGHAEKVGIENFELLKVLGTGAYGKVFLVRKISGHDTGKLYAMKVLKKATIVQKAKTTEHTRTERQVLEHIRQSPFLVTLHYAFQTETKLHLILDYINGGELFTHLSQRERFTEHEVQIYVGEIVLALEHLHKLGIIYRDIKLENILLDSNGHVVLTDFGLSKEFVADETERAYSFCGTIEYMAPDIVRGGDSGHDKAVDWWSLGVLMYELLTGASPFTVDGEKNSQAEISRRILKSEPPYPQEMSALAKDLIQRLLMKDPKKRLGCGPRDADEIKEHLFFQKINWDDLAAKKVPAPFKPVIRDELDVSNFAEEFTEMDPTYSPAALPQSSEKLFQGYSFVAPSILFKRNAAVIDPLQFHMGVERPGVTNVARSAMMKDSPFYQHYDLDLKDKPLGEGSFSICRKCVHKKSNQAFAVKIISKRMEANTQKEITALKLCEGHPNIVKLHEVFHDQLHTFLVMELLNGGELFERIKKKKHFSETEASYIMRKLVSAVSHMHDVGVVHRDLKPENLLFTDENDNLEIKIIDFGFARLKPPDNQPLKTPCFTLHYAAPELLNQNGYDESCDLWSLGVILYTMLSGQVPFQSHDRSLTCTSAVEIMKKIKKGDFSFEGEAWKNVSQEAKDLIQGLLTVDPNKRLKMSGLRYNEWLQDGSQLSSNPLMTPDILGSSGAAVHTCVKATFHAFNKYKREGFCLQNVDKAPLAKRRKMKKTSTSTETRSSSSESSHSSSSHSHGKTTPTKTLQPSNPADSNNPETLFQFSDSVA

Sample 1
Structure (SMILES): Cn1cncc1[C@@](O)(COc1ccc(C#N)cc1-c1ccc(OC(F)(F)F)cc1)c1ccc(C#N)cc1
Method: competition with immobilised ligand
Concentration: 1 µM
Measurement: remaining binding
Tyrosine-protein kinase ABL1, phosphorylated (ABL1, Homo sapiens, UniProt P00519, H396P); cell-free assay: 92%
ULK1 (Homo sapiens, UniProt O75385); cell-free assay: 95%
PKMYT1 (Homo sapiens, UniProt Q99640); cell-free assay: 100%
MET (Homo sapiens, UniProt P08581); cell-free assay: 94%
MYLK3 (Homo sapiens, UniProt Q32MK0); cell-free assay: 96%
STK4 (Homo sapiens, UniProt Q13043); cell-free assay: 100%
CDK18 (Homo sapiens, UniProt Q07002); cell-free assay: 100%
CDK7 (Homo sapiens, UniProt P50613); cell-free assay: 63%
Ribosomal protein S6 kinase alpha-2, C-terminal kinase domain (RPS6KA2, Homo sapiens, UniProt Q15349); cell-free assay: 98%
PIP5K1A (Homo sapiens, UniProt Q99755); cell-free assay: 87%
PIK3C2G (Homo sapiens, UniProt O75747); cell-free assay: 61%
STK17B (Homo sapiens, UniProt O94768); cell-free assay: 84%
LATS1 (Homo sapiens, UniProt O95835); cell-free assay: 100%
Tyrosine-protein kinase ABL1, phosphorylated (ABL1, Homo sapiens, UniProt P00519, Q252H); cell-free assay: 84%
Ribosomal protein S6 kinase alpha-5, C-terminal kinase domain (RPS6KA5, Homo sapiens, UniProt O75582); cell-free assay: 81%
RET (Homo sapiens, UniProt P07949, V804M); cell-free assay: 98%
Tyrosine-protein kinase ABL1, non-phosphorylated (ABL1, Homo sapiens, UniProt P00519); cell-free assay: 95%
BMPR1A (Homo sapiens, UniProt P36894); binding: 100%
KIT (Homo sapiens, UniProt P10721, V559D); cell-free assay: 97%
TNK1 (Homo sapiens, UniProt Q13470); cell-free assay: 88%
NTRK2 (Homo sapiens, UniProt Q16620); cell-free assay: 88%

Sample 2
Target: TAR DNA-binding protein 43, full length, His tag (TARDBP, Homo sapiens, UniProt Q13148, residues 1-414)
Method: RNA Bind-n-Seq
Form: RNA
Matrix: in vitro
Concentration: 20 nM
Setting: 6-mer, flanks averaged, single round
Together with: 150 mM KCl
Reference: input library
Reading: higher = stronger binding
Measurement: 6-mer enrichment (R)
UGUGAG: 1.72
CCGCAG: 0.883
AUGAGG: 1.86
UCACAC: 0.598
AACAGG: 1.12
AAUCAG: 0.662
UCAAGG: 1.03
AAUCCG: 0.619

Sample 3
Target: HLA class I histocompatibility antigen, C alpha chain, allele C*04:01 (Homo sapiens, UniProt P10321)
Read-out: peptide-MHC binding
Form: peptide
Concentration: concentration not given
Measurement: binding
FMYEGDTPL: inactive
FRMLAWHVL: inactive
LEYFQFVKKLL: inactive
MMAKSNSPF: inactive
RIYKRSLKL: inactive
SEFWLNYTA: inactive
RYSNFAWYF: inactive
WEMRAGREI: inactive
VTFGARASF: inactive
FVVDTTPPL: inactive
MTMLTRWKI: inactive
MTMSYLSTR: inactive
ALRQARAAF: inactive
VPRPRFSAL: inactive
RTLNLFRYK: inactive
YWDQVTFFY: inactive
SLMASSPTSI: inactive
RWFVRNPFF: inactive
MYTRNLLWL: inactive
YMKERFTVL: inactive
RRYASQTEL: inactive
YMRERFEPM: inactive
MPYHGYHII: inactive
RFVLALLAF: inactive
TFVPIAWAAAY: inactive

Sample 4
Partner: ARF18 482-602 (Arabidopsis thaliana, UniProt Q9C5W9)
Method: two-hybrid
Reference: out of 4 tests
Reading: higher = firmer interaction
Measurement: positive tests
B1: ARF16 570-670 (Arabidopsis thaliana, UniProt Q93YR9); chain SPCSKKVHDASGLETGHCKVFMESDDVGRTLDLSVLGSYEELSRKLSDMFGIKKSEMLSSVLYRDASGAIKYAGNEPFSEFLKTARRLTILTEQGSESVVV
B2: IAA31 (Arabidopsis thaliana, UniProt Q8H174); chain MEVSNSCSSFSSSSVDSTKPSPSESSVNLSLSLTFPSTSPQREARQDWPPIKSRLRDTLKGRRLLRRGDDTSLFVKVYMEGVPIGRKLDLCVFSGYESLLENLSHMFDTSIICGNRDRKHHVLTYEDKDGDWMMVGDIPWDMFLETVRRLKITRPERY
B3: ARF4 660-788 (Arabidopsis thaliana, UniProt Q9ZTX9); chain QSSSKRICTKVHKQGSQVGRAIDLSRLNGYDDLLMELERLFNMEGLLRDPEKGWRILYTDSENDMMVVGDDPWHDFCNVVWKIHLYTKEEVENANDDNKSCLEQAALMMEASKSSSVSQPDSSPTITRV
B4: IAA29 (Arabidopsis thaliana, UniProt Q93WC4); chain MELDLGLSLSPHKSSKLGFNFDLNKHCAIEGAASCLGTEKLRFEATFGLGNVEENCYMPKQRLFALNGQPNEEDEDPLESESSIVYDDEEENSEVVGWPPVKTCMIKYGSYHHRHIRNHHHCPYHHRGRRITAMNNNISNPTTATVGSSSSSSISSRSSMYVKVKMDGVAIARKVDIKLFNSYESLTNSLITMFTEYEDCDREDTNYTFTFQGKEGDWLLRGDVTWKIFAESVHRISIIRDRPCAYTRCLF
B5: ARF10 575-693 (Arabidopsis thaliana, UniProt Q9SKN5); chain LQGLETGHCKVFMESEDVGRTLDLSVIGSYQELYRKLAEMFHIEERSDLLTHVVYRDANGVIKRIGDEPFSDFMKATKRLTIKMDIGGDNVRKTWITGIRTGENGIDASTKTGPLSIFA
B6: ARF11 500-622 (Arabidopsis thaliana, UniProt Q9ZPY6); chain SPKEQKQQTSTRSRIKVQMQGTAVGRAVDLTLLRSYDELIKELEKMFEIEGELSPKDKWAIVFTDDEGDRMLVGDDPWNEFCKMAKKLFIYPSDEVKKMRSKSLLGDKGTIVNLESDQRTVHV
Target sequence (chain): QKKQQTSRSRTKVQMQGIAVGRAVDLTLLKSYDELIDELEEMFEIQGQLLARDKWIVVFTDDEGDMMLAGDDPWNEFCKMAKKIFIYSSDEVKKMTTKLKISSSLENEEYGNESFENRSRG
B1 (ARF16 570-670): 0
B2 (IAA31): 0
B3 (ARF4 660-788): 0
B4 (IAA29): 0
B5 (ARF10 575-693): 0
B6 (ARF11 500-622): 1

For quick reference, copied from above (sample 3):
RIYKRSLKL: inactive
SEFWLNYTA: inactive
RYSNFAWYF: inactive
WEMRAGREI: inactive
VTFGARASF: inactive
